Assay results collected from several papers.
Each line is one published result; not all experiments were run side by side. [ ]: non-standard residue; d: D form.
Technique: steady-state kinetics
B1: HCT R356E (Coleus scutellarioides, UniProt E8ZAP2); chain MKIHVRDSTLVRPSAATPAVSLWNSNVDLVVPNFHTPSVYFYRPSGADNFFDTAVMKAALGRALVSFYPMAGRLKRDEDGRVEIDCNAEGVLFVEAESDGTVDDYGDFAPSLELRRLIPAVDYSQGISAYPLLVLQVTFFKCGGVSLGVGMQHHAADGFSGLHFINTWSDMARGLDITLPPFIDRTLLSARDPPQPQFKHVEYQPPPAMKTYEPAETVVSIFKLTKDQLTTLKAKSKEDGNTTTYSSYEMLSGHVWRCTCLARGLPEEQETKLYIATDGRSRLQPQLPPGYFGNVIFTATPLAVAGDLGSKPVWYAASKIHDALARMDNDYLRSALDFLELQPDLKALVRGAHTFECPNLGITSWVRLPIHDADFGWGRPIFMGPGGIAYEGLSFVLPSPTNDGSLSVAISLQAEHMKLFEKLLYQI
B2: enzyme (Acinetobacter baumannii, UniProt D0CBC8); chain MALVLDGRALAKQIEENLLVRVEALKAKTGRTPILATILVGDDGASATYVRMKGNACRRVGMDSLKIELPQETTTEQLLAEIEKLNANPDVHGILLQHPVPAQIDERACFDAISLAKDVDGVTCLGFGRMAMGEAAYGSATPAGIMTILKENNIEIAGKHAVVVGRSAILGKPMAMMLLQANATVTICHSRTQNLPELVKQADIIVGAVGKAELIQKDWIKQGAVVVDAGFHPRDGGGVGDIQLQGIEEIASAYTPVPGGVGPMTITTLIRQTVEAAEKALG
B3: enzyme (Schistosoma mansoni, UniProt Q962Y6); not fully specified; Sec = N[C@@H](C[SeH])C(=O)O; chain MPPADGTSQWLRKTVDSAAVILFSKTTCPYCKKVKDVLAEAKIKHATIELDQLSNGSAIQKCLASFSKIETVPQMFVRGKFIGDSQTVLKYYSNDELAGIVNESKYDYDLIVIGGGSGGLAAGKEAAKYGAKTAVLDYVEPTPIGTTWGLGGTCVNVGCIPKKLMHQAGLLSHALEDAEHFGWSLDRSKISHNWSTMVEGVQSHIGSLNWGYKVALRDNQVTYLNAKGRLISPHEVQITDKNQKVSTITGNKIILATGERPKYPEIPGAVEYGITSDDLFSLPYFPGKTLVIGASYVALECAGFLASLGGDVTVMVRSILLRGFDQQMAEKVGDYMENHGVKFAKLCVPDEIKQLKVVDTENNKPGLLLVKGHYTDGKKFEEEFETVIFAVGREPQLSKVLCETVGVKLDKNGRVVCTDDEQTTVSNVYAIGDINAGKPQLTPVAIQAGRYLARRLFAGATELTDYSNVATTVFTPLEYGACGLSEEDAIEKYGDKDIEVYHSNFKPLEWTVAHREDNVCYMKLVCRKSDNMRVLGLHVLGPNAGEITQGYAVAIKMGATKADFDRTIGIHPTCSETFTTLHVTKKSGVSPIVSGC[Sec]G
B4: Mj-MAT W387F (Methanocaldococcus jannaschii, UniProt Q58605); chain MRNIIVKKLDVEPIEERPTEIVERKGLGHPDSICDGIAESVSRALCKMYMEKFGTILHHNTDQVELVGGHAYPKFGGGVMVSPIYILLSGRATMEILDKEKNEVIKLPVGTTAVKAAKEYLKKVLRNVDVDKDVIIDCRIGQGSMDLVDVFERQKNEVPLANDTSFGVGYAPLSTTERLVLETERFLNSDELKNEIPAVGEDIKVMGLREGKKITLTIAMAVVDRYVKNIEEYKEVIEKVRKKVEDLAKKIADGYEVEIHINTADDYERESVYLTVTGTSAEMGDDGSVGRGNRVNGLITPFRPMSMEAASGKNPVNHVGKIYNILANLIANDIAKLEGVKECYVRILSQIGKPINEPKALDIEIITEDSYDIKDIEPKAKEIANKFLDNIMEVQKMIVEGKVTTF
B5: ycjS (Escherichia coli, UniProt P77503); chain MKSAMTSSPLRVAIIGAGQVADKVHASYYCTRNDLELVAVCDSRLSQAQALAEKYGNASVWDDPQAMLLAVKPDVVSVCSPNRFHYEHTLMALEAGCHVMCEKPPAMTPEQAREMCDTARKLGKVLAYDFHHRFALDTQQLREQVTNGVLGEIYVTTARALRRCGVPGWGVFTNKELQGGGPLIDIGIHMLDAAMYVLGFPAVKSVNAHSFQKIGTQKSCGQFGEWDPATYSVEDSLFGTIEFHNGGILWLETSFALNIREQSIMNVSFCGDKAGATLFPAHIYTDNNGELMTLMQREIADDNRHLRSMEAFINHVQGKPVMIADAEQGYIIQQLVAALYQSAETGTRVEL
B6: enzyme (UniProt A0A2T5C445); chain MKSKQLNTDLFKVQAKQQIRLKNYDPASCNGFANRKEAEHQLKQDIKELADLQYQLYAENKRSVLIVFQAMDAAGKDGSIRHVFSGLNPQGCKVYSFKSPSANELDHDYLWRHYNKLPPRGEIGIFNRSHYENVLITRVHPEFLLNENLPDVHATNDITTEFWERRYRQIRDFEQTLTENGTTIIKFFLHLSKDEQKKRFMERIRKPAKNWKFSSADIRERQYWDDYQHAYEQAMRATSTEEAPWYIIPADNKWFTHVAIGNIIVETLQQMNIQMPEISSEEKDALKKAKKKLQNE
B7: SULT1B1 K266E (Homo sapiens, UniProt O43704); chain MLSPKDILRKDLKLVHGYPMTCAFASNWEKIEQFHSRPDDIVIATYPKSGTTWVSEIIDMILNDGDIEKCKRGFITEKVPMLEMTLPGLRTSGIEQLEKNPSPRIVKTHLPTDLLPKSFWENNCKMIYLARNAKDVSVSYYHFDLMNNLQPFPGTWEEYLEKFLTGKVAYGSWFTHVKNWWKKKEEHPILFLYYEDMKENPKEEIKKIIRFLEKNLNDEILDRIIHHTSFEVMKDNPLVNYTHLPTTVMDHSKSPFMRKGTAGDWENYFTVAQNEKFDAIYETEMSKTALQFRTEI
B8: AtTPS18 G328P (Arabidopsis thaliana, UniProt Q9LUE2); chain STKSSDDLEGSRPSTYFSPSLWGDHFLSVSLDRGEFDELEREIETMKPLVKDMLMSSQSSDKEKIRLIHLLVSLGSSYHFDKEIQDILKHSFTKLDDIIVGEDDLETISIMFEVFRLYGHKMSCDAFDRFRGEDGRFKESLAKDVRGMLQLFEVAHLGTPSEDIMDEASSFAQNHLDSWIGGNVSGATPHLLKHIQNSLYIPRYCNIEVLVAREYISYYEQEEGHNKILLKFAKLNFNFCQFHYIQELKTLTKWWKDLDLASKLPYIRDRLVESHLPGLGPYFEPHYSLGRIIVAKIIMTMVVVDDTYDAHATVPEVAVLTECLQRLNIGADDKLPDYLRTVLESVFEVMGEIEQEMRPKGRSYGVKQVLERFKNVAKADKQLTEWARTGDVPSFDEYMKVGLVTAGMDGYAGYCFIGMEDVSEKEAFEWLSSNPLIIQALNVMFRLANDVGTYETEINRGEVANGLNCYMKQYGVTKEEASQELRKIYSNNKKVVMEEFMNSHDHVPRQVLLRCLNFARLFDVMYTEGDGYSEPKGKIEHFMTSLYVHPIPLS
B9: protein (Streptomyces toyocaensis, UniProt Q8KLK7); chain MTTVLPPLEDTDGLWAALTEAAASVEKLLATLPEHGARSSAERAEIAAAHDAARALRVRFLDTHADAVYDRLTDHRRVHLRLAELVEAAATAFPGLVPTQQQLAVERSLPQAAKEGHEIDQGIFLRAVLRSPLAGPHLLDAMLRPTPRALELLPEFVRTGEVEMEAVHLERRDGVARLTMCRDDRLNAEDGQQVDDMETAVDLALLDPGVRVGLLRGGVMSHPRYRGKRVFSAGINLKYLSQGGISLVDFLMRRELGYIHKLVRGVLTNDDRPGWWHSPRIEKPWVAAVDGFAIGGGAQLLLVFDRVLASSDAYFSLPAAKEGIIPGAANLRLGRFAGPRVSRQVILEGRRIWAKEPEARLLVDEVVEPDELDAAIERSLTRLDGDAVLANRRMLNLADESPDGFRAYMAEFALMQALRLYGHDVIDKVGRFGGRPPA
B10: enzyme S146C (Schizosaccharomyces pombe, UniProt Q9Y7P0); chain MFTGLVEAIGVVKDVQGTIDNGFAMKIEAPQILDDCHTGDSIAVNGTCLTVTDFDRYHFTVGIAPESLRLTNLGQCKAGDPVNLERAVLSSTRMGGHFVQGHVDTVAEIVEKKQDGEAIDFTFRPRDPFVLKYIVYKGYIALDGTCLTITHVDDSTFSIMMISYTQSKVIMAKKNVGDLVNVEVDQIGKYTEKLVEAHIADWIKKTQA

Substance | substrate | pH | temperature | notes | added | Km
B1 (HCT R356E) | NCc1ccc(O)c(O)c1 | pH 8 | – | pseudo-first-order | p-coumaroyl CoA | 16300 µM
B2 (enzyme) | Nc1nc2c(c(=O)[nH]1)[N+]1=CN(c3ccc(C(=O)N[C@@H](CCC(=O)O)C(=O)[O-])cc3)C[C@H]1CN2 | pH 7.3 | 27 °C | – | – | 40.3 µM
B3 (enzyme) | NC(=O)CCCCC1CCSS1 | pH 7.4 | 25 °C | – | – | 5000 µM
protein (Lodderomyces parapsilosis, UniProt G8BA04) | CC(=O)C(=O)O | pH 7.5 | 25 °C | apparent | methylamine 50 mM, NADPH 0.2 mM | 15000 µM
B4 (Mj-MAT W387F) | CSCC[C@H](N)C(=O)O | – | 55 °C | – | ATP 2.5 mM, methionine 0.05-1 mM | 310 µM
B5 (ycjS) | CO[C@@H]1O[C@H](CO)[C@@H](O)C(=O)[C@H]1O | pH 7 | 30 °C | – | NADH 0.3 mM | 800 µM
B6 (enzyme) | Nc1ncnc2c1ncn2[C@@H]1O[C@H](COP(=O)(O)O)[C@@H](O)[C@H]1O | pH 8 | 30 °C | – | – | 2900 µM
B7 (SULT1B1 K266E) | Nc1ncnc2c1ncn2[C@@H]1O[C@H](COP(=O)(O)OS(=O)(=O)O)[C@@H](OP(=O)(O)O)[C@H]1O | pH 7.4 | 37 °C | monomer | 1-naphthol | 3.88 µM
B8 (AtTPS18 G328P) | CC(C)=CCC/C(C)=C/CC/C(C)=C/CC/C(C)=C/CC/C(C)=C/COP(=O)(O)OP(=O)(O)O | pH 7.5 | 30 °C | product C5 measured | Mg2+ 10 mM | 1.28 µM
B9 (protein) | CC(C)(COP(=O)(O)OP(=O)(O)OC[C@H]1O[C@@H](n2cnc3c(N)ncnc32)[C@H](O)[C@@H]1OP(=O)(O)O)[C@@H](O)C(=O)NCCC(=O)NCCSC(=O)Cc1cc(O)cc(O)c1 | pH 7.5 | 24 °C | – | O2 | 2.3 µM
B10 (enzyme S146C) | Cc1nc2c(=O)[nH]c(=O)nc-2n(C[C@H](O)[C@H](O)[C@H](O)CO)c1C | pH 7.2 | 37 °C | apparent | – | 8.9 µM

For quick reference, copied from above:
Substance | substrate | pH | temperature | notes | added | Km
B6 (enzyme) | Nc1ncnc2c1ncn2[C@@H]1O[C@H](COP(=O)(O)O)[C@@H](O)[C@H]1O | pH 8 | 30 °C | – | – | 2900 µM
B7 (SULT1B1 K266E) | Nc1ncnc2c1ncn2[C@@H]1O[C@H](COP(=O)(O)OS(=O)(=O)O)[C@@H](OP(=O)(O)O)[C@H]1O | pH 7.4 | 37 °C | monomer | 1-naphthol | 3.88 µM
